Published values pooled from the literature.
Every numbered part comes from another study and shows a few of its results, in no order.

Series 1 — technique: RNA Bind-n-Seq; molecule type: RNA; medium: in vitro; tested at: 365 nM; baseline: no-protein control; direction: higher = stronger binding
Target: RNA binding protein fox-1 homolog 2, RRM domain, GST-SBP tag (RBFOX2, Homo sapiens, UniProt O43251-10, residues 100-194)
Setting: natural RNA segment, single round, ends assumed
Target sequence (chain): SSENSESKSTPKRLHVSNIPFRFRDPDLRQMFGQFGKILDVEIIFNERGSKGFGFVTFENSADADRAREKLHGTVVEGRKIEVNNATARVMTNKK
Oligonucleotide	RBNS enrichment (R)
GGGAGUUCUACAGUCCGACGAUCAGAGGGGCAGGCCCUGCACUGUCCUGCUCCACAGUGUUGGCGAGAGGAGGGGCCCGUUGUCUCCCUGGCCCUCAAGGCCUCCCACAGUGACUCGGGCUCCUGUGCCCUUAUGGAAUUCUCGGGUGCCAA	0.504
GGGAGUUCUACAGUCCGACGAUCAAAGUUUGAGAUUAUCCUAGGCUACAUAGCAAGGUGAUUUCAAGAAAGAGAUGAAGGAAGGAAGGAAGAGAAAAACAAAGUCAUUUGUUCAUAGUGAGGUCUCCAGCUAUUGGAAUUCUCGGGUGCCAA	0.31
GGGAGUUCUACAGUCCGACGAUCGGUGUUUAGUAUACCCAAGCAGAUAGGUGUCGAUCGAACAGGAGCAGGGAGAAUACUUCCAACAGUUGAGGUGUUACCAAACCACUUGAGAAUUCAUGAGCACUUUAACUUGGAAUUCUCGGGUGCCAA	0.356
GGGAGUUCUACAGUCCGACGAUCUACAUUUAGAAAUAUUUAUUUAUUCUAGCAGGGAAAAAACCCCACAUGCUUUAAAUGAUGUCACUUUCCACAACUUCAUUCUUGUGCUGUCAUUGGACUGAAUGUUAUGCUGGAAUUCUCGGGUGCCAA	2.92
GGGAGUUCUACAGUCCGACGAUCGUUGUUUCUAUGCCUUCUGACCCAGUUUCCCAGUUUAUAACUUUAUGACAAUGAGUUUCUCAAGCCCAAGGCCUUAUCUUCACCCCACAAACAAUAAAGCAAAGUAAAGAUGGAAUUCUCGGGUGCCAA	0.459
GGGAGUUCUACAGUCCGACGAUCGCUCCCCUCCCCACCCUCCUCUUCUUUGCAAAACAGACCCAAGCAGGGCAGGCUCAGACCACUCGCUUCUUUCAGAUCUUUCUUGCAAUUAUGAUAACAUGAGAUUUGCUUGGAAUUCUCGGGUGCCAA	0.656
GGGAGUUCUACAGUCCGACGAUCGAAUGUCAUUGUUUUUAAAACUGUUUUAUAUCUUAAGAGUGCCUUAUUAAAGUAUAGAUGUAUGUCUUAAAAUGUGGGUGAUAGGAAUUUUAAAGAUUUAUAUAAUGCAUUGGAAUUCUCGGGUGCCAA	1.54
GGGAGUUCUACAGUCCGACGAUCAAAAAAAAAAUUGUUUGAGUACAUUUUCCCUGCAUUUUAGAGAUUAGGACAGUGGUCACUUUCUAGUUGCCGUCUUCACAGACAAACUUGAAAGGUAUUAAGGAAAAAAUUGGAAUUCUCGGGUGCCAA	0.598

Series 2 — technique: RNA Bind-n-Seq; molecule type: RNA; medium: in vitro; tested at: 200 nM; setting: whole 134-nt RNA, ends assumed; with: 150 mM KCl; baseline: input library; direction: higher = stronger binding
Target: Ras GTPase-activating protein-binding protein 1, full length (G3BP1, Homo sapiens, UniProt Q13283)
UniProt Q13283, sequence (whole entry, looked up): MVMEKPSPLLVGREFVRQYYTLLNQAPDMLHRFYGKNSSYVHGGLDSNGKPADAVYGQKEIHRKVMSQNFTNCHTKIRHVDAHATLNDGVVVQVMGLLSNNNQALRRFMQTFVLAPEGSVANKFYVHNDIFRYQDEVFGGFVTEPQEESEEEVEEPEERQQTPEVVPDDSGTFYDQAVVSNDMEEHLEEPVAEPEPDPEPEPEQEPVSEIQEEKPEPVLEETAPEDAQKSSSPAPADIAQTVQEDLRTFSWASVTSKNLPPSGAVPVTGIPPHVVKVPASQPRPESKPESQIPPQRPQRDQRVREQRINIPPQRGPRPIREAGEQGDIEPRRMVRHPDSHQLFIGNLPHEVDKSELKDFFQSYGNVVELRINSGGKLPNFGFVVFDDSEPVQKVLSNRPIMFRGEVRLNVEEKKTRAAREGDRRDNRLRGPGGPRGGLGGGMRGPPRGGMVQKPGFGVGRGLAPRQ
Oligonucleotide	log2 enrichment
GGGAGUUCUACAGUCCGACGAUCAGUCCUGUGCUACACAUCGUAUGUACCGAAUCGGUUUUUUUGGUUUUUGGAAAAAGGAAAGUAUUAUGUUACGCCGUUCGGAUCUGCACUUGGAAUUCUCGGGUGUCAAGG	-1.52
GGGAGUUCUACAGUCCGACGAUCGUCCUGUGCUACACAUCGUAUGUACCGAAUCGGUUUUUUGGGGUUUUUUGGUUUUUUGGAAAGUAUUAUGUUACGCCGUUCGGAUCUGCAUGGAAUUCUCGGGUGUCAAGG	-0.903
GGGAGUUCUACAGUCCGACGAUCUAACUUUAGAGGAGGAUCUGAUGGAUAUGGCAGUGGACGUGGAUUUGGGGAGGGCUAUAAUGGGUAUGGAGGAGGACCUGGAGGUGGCAAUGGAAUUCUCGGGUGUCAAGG	0.92
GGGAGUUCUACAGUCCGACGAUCAAGUCCUGUGCUACACAUCGUAUGUACCGAAUCGGGUUUUGGGGUUUUGGGUUUUGGAAAGUAUUAUGUUACGCCGUUCGGAUCUGCACUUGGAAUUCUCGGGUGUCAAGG	-0.711
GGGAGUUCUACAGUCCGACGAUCUGGCCCUGGUGGCAUCCGGGGAGGAAGAGGUGGCCUCAUGGAUCGUGGUGGUCCCGGUGGAAUGUUCAGAGGUGGCCGUGGUGGAGACAGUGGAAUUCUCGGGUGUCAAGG	0.595
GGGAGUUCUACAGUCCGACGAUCAGUCCUGUGCUACACAUCGUAUGUACCGAAUCGGGAAAAAAAGGGAAAGGGUUUGGGAAAGUAUUAUGUUACGCCGUUCGGAUCUGCACUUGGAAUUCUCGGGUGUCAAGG	-0.318
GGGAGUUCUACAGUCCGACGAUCGCAGGAAGUAAAAACAAAUGGAAAUGCUUCGGAUAGUGGCAGGGGGGGGGGUUGCUAAGGAAAGGGUGGGAUGGGAGUGGGUAAAGAGUUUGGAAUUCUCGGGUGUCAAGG	1.19
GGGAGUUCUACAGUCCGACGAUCUCAAGUCCUGUGCUACACAUCGUAUGUACCGAAUCGGGAGGGAGGGAAAAAGGGAAAGUAUUAUGUUACGCCGUUCGGAUCUGCACUUCCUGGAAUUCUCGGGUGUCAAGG	1.01
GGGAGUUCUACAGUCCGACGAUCUCCUGUGCUACACAUCGUAUGUACCGAAUCGGGUUUUUGGGAAAAAAAGGGUUUUUGGGAAAGUAUUAUGUUACGCCGUUCGGAUCUGCAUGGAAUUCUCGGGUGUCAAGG	-0.552
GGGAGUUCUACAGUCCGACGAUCUAACUUUAGAGGAGGAUCUGAUGGAUAUGGCAGUGGACGUGGAUUUGGGGAUGGCUAUAAUGGGUAUGGAGGAGGACCUGGAGGAGGCAAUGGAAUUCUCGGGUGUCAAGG	0.212

Series 3 — technique: protein-binding microarray; molecule type: double-stranded DNA, one strand shown; medium: in vitro; tested at: not given; direction: higher = stronger binding
Target: Transcriptional repressor CTCF (CTCF, Homo sapiens, UniProt P49711, residues 1-727, full length assumed)
Setting: k-mer, scored over probes, only values ≥0.25
Construct (chain): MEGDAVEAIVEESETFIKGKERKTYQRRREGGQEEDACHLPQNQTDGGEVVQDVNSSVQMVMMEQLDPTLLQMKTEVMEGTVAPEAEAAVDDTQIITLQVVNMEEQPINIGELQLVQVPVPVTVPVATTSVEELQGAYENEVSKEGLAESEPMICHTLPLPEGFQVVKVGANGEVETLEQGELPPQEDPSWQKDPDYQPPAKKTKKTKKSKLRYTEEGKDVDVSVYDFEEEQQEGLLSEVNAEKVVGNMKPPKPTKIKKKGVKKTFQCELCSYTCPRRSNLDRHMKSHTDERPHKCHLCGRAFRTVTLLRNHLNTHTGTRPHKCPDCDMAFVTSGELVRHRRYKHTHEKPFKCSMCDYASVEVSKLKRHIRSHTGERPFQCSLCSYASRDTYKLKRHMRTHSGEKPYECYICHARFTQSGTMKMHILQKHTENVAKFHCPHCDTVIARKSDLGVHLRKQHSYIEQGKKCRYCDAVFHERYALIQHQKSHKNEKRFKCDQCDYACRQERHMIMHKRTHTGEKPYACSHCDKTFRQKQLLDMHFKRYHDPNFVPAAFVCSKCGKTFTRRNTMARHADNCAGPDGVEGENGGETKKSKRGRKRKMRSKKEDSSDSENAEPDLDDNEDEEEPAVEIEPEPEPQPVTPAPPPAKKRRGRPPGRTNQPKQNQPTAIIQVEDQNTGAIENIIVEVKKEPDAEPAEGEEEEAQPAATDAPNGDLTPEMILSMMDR
Oligonucleotide	E-score
ATATTAAT	0.376
AGGGTATA	0.271
GGAAAAAA	0.26
AAGGCCGT	0.321
TGGAAAAA	0.264
ACCACACG	0.257
AAAATTAT	0.321

Single results of other studies
Substance	target	test	test system	setting	scale	measurement	result
PhoQ, residues 284 288 289 292 302 303 SLSLLA	PhoP, residues 12 14 15 18 19 QWHVF (Escherichia coli, UniProt P23836)	Sort-seq, item: YFP reporter	E. coli	PhoQ-PhoP variant library, with: 10 µM Mg2+	baseline: high Mg2+ state, higher = stronger signaling	fold induction	7.38

Excerpt of the above (series 2):
Oligonucleotide	log2 enrichment
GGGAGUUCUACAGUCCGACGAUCUAACUUUAGAGGAGGAUCUGAUGGAUAUGGCAGUGGACGUGGAUUUGGGGAGGGCUAUAAUGGGUAUGGAGGAGGACCUGGAGGUGGCAAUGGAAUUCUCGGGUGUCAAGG	0.92
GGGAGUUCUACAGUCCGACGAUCUAACUUUAGAGGAGGAUCUGAUGGAUAUGGCAGUGGACGUGGAUUUGGGGAUGGCUAUAAUGGGUAUGGAGGAGGACCUGGAGGAGGCAAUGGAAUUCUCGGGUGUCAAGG	0.212
